# Measured values pooled from the literature.
# Parts stem from different laboratories: compare values within a part only. Substitutions count along the parent as printed.

# Set 1
# Target: Histone acetyltransferase KAT6A, winged helix 1, GST fusion (KAT6A, Homo sapiens, UniProt Q92794, residues 1-85)
# Method: protein binding microarray
# Molecule type: double-stranded DNA, one strand shown
# Matrix: in vitro
# Concentration: not given
# Setting: 8-mer, flanks averaged, mean of 2 arrays, mostly near background
# Baseline: not given
# Reading: higher = stronger binding
# Construct (chain): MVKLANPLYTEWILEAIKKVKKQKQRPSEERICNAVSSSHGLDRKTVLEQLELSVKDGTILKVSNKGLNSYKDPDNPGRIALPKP
Sequence,E-score
GGTAGCAC,0.0305
GTATGGGA,-0.015
ACGGGAAC,0.399
GCCACGGA,0.17
CTCTCGCC,-0.0515
GTCATAAC,-0.102
AACAAACC,-0.0173
ACAGCCCA,-0.173
GAGGCGAC,0.00709
GAAGCTGC,0.0274
AAACGCGC,0.372
ACTTGACC,-0.166
GTAAAGCA,-0.0394
TGACGTAA,-0.0597
AGCTCCGG,-0.0813
GATCTCCC,0.00822
CCGGTGTC,0.234
AACTAGTA,-0.11
GGCCGGTA,0.276
CCTCGGCG,0.402
CATAGTGA,-0.197
GAGGGGCA,-0.0426
CTCATGGC,-0.00834
AGGGAGTA,-0.0822
ACCGAGTC,-0.0171

# Set 2
# Target: CCNE2, cyclin fold, Cln2 fusion (human)
# Method: yeast growth competition, sequencing
# Matrix: yeast
# Setting: weak parent motif
# Baseline: not given
# Reading: higher = stronger binding
# Parent: ASZ1 docking peptide (human); GFGFLLFICKLTF
Substitution,normalised enrichment score
L11A,0.581
F4A,0.419
L5A,0.72
T12A,0.922
K10A,0.847
G3A,1.17

# Set 3
# Target: RNA binding protein fox-1 homolog 2, RRM domain, GST-SBP tag (RBFOX2, Homo sapiens, UniProt O43251-10, residues 100-194)
# Method: RNA Bind-n-Seq
# Molecule type: RNA
# Matrix: in vitro
# Concentration: 365 nM
# Setting: natural RNA segment, single round, ends assumed
# Baseline: no-protein control
# Reading: higher = stronger binding
# Shared flanks, not repeated: GGGAGUUCUACAGUCCGACGAUC … UGGAAUUCUCGGGUGCCAA
# Construct (chain): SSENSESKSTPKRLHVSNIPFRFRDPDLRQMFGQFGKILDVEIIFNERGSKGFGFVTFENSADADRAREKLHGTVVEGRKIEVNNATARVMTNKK
Sequence,RBNS enrichment (R)
UCUCCUUUUCCUGCCUCCUCCCUAAAUAGCUGCCUUCUAGUGCUGUAGCAAGGGAGCCCUACUGCAUAGCCAGUAACUCGCGUCUGUACCAUGGAAAGGGCGGAACGAUU,0.42
UCACUCAUUUGCUAAGCAUUGGGAACAUUCUGUGUAUUUACCUUAAACAUAAAUAAAUUCCUGAGAGUGUCCUAUAUUUGGAUUGUGAUUUGUAGACUCAUGCUAACUUU,0.378
CCCUACAAUAAGAUUGUUUUAUCUGUACAUUUUUUCAGAUAUUUAACUGUAUAAAAUGUUCAUUUUACACAAUAUUUAAUUAAAGUAUUUCUUGUCUGUGAAUUUCACUU,0.472
UUCCCAUUUCCUGUGGUCCUUUUUUUGUCAUCCCUUGAAGGUGCCCUUGAAAUCCUAAUCUAAGACACUGCUUGAGUCCAAGGCAACCCUCAAUGAGACUAAGACUUGUG,0.907
CUGCUGAGGACAGCCAGAAGCCCACACUGCCCUCUCACUUGGGUCCAGUUCUUGAUAGUUGGGGGCAGAGCCCCCACACUCCCUUAUACUUCCUGACUGUGCCAGGGCUU,0.304
AACCAUUAAAACCAACAUGGAAUGCAGGGACUUCGCCUUAUAAGAUUUCCAGUUUUAAAACUGCCCCUCAGAUACAAUUUCAAAGUAGGGUACACAUUAGAGUGUCUUUG,0.391

# Set 4
# Target: Prothrombin, mature alpha-thrombin (F2, Homo sapiens, UniProt P00734)
# Method: aptamer microarray, sandwich
# Molecule type: DNA with 2'F-ANA
# Matrix: in vitro
# Concentration: 200 nM
# Setting: whole 15-mer aptamer, many near background
# Together with: Cy3 exosite-II aptamer, 400 nM
# Reading: higher = stronger binding
# Sequence: GGTTGGTGTGGTTGG
Modification,mean fluorescence intensity [a.u.]
2'F-ANA at 1 5 7 9 10 11 12 13 14 15,46.8
2'F-ANA at 2 4 6 8 9 10 11 13 15,60.9
2'F-ANA at 1 2 3 8 9 10 12 13 14 15,55.4
2'F-ANA at 1 8 9 12,435
2'F-ANA at 1 2 3 4 5 6 7 8 10 12 13 14 15,82.4
2'F-ANA at 3 7 8 13 14 15,602
2'F-ANA at 7 8 9 10 12 14,144
2'F-ANA at 2 3 5 9 10 11 12 15,61.3
2'F-ANA at 1 2 3 6 10 11 15,60.7
2'F-ANA at 2 3 4 5 7 8 9 10 13 14 15,50.6
2'F-ANA at 1 4 5 6 7 9 11 12 14 15,47.4
2'F-ANA at 2 3 4 5 6 7 8 10 11 12 14 15,56.1
2'F-ANA at 3 6 8 9 10 13 14,359
2'F-ANA at 3 4 6 8 12 13 15,669
2'F-ANA at 3 5 8 9 13,109
2'F-ANA at 3 4 6 7 10 12 13 15,235
2'F-ANA at 1 4 7 9,127
2'F-ANA at 1 3 5 8 10 11 12 14,44.1
2'F-ANA at 3 5 7 8 9 10 12 13 14 15,69.3
2'F-ANA at 2 6 7 8 9 13 15,294
2'F-ANA at 1 4 5 11 14 15,46.8
2'F-ANA at 2 3 4 6 9 10 11 12 15,220
2'F-ANA at 1 2 10 13 14,56.9
2'F-ANA at 4 9 11 12 13 15,300

# Set 5
# Target: Interferon regulatory factor 5, full length, phosphomimetic (IRF5, Homo sapiens, UniProt Q13568-2, residues 1-514, K96S/S451D/S453D/S456D/S462D)
# Method: protein-binding microarray
# Molecule type: double-stranded DNA, one strand shown
# Matrix: in vitro
# Concentration: 250 nM
# Setting: 60-bp whole probe
# Together with: salmon DNA 0.4 mg/ml
# Baseline: random background probes
# Reading: higher = stronger binding
# Shared flanks, not repeated: GCCTAGCAC … GTCTTGATTCGCTTGACGCTGCTG
Sequence,log fluorescence [z-score]
TTAGATATCAGTATAGATTAGTGCTAG,1.59
TTAGAACTGTGTATCGATTAGTGCTAG,3.91
TTAGGACTGCTTCTCTTTTAGTGCTAG,0.0397
GCAAACCCCATTCTCAGCCCGTGCTAG,-0.446
TTAGGACAGGGTATCGGTTAGTGCTAG,2.22
TTAGGACTGGGGTTTCGTTTAGTGCTA,2.34
TGAGGACTGGGTTTCGGTTAGTGCTAG,8.23
TCCTCTTTCACTGCTCCATACGTGCTA,3.93
TTAGAACTGAGTATTGATTAGTGCTAG,0.403
GACGAACTGGGGACTGGAGCCGTGCTA,-0.726
ATATATATATTGTTAGTGTAGTGCTAG,0.826
TTAGGATTGCTACTGCTTTAGTGCTAG,0.025

# Set 6
# Target: Ras GTPase-activating protein-binding protein 1, full length (G3BP1, Homo sapiens, UniProt Q13283)
# Chain of UniProt Q13283 (whole entry, looked up): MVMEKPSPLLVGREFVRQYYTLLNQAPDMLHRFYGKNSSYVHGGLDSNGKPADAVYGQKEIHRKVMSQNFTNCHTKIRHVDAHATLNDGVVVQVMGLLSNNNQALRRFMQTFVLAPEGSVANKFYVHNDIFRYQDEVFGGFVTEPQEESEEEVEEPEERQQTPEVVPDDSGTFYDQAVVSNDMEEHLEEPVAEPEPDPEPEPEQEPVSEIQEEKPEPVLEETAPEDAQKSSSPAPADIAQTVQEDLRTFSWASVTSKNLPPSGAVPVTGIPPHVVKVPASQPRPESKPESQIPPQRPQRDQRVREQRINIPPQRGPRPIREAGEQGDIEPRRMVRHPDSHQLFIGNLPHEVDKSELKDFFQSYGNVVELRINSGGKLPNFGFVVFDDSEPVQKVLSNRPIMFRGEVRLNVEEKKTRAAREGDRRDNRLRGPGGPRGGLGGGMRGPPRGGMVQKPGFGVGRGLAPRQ
# Method: RNA Bind-n-Seq
# Molecule type: RNA
# Matrix: in vitro
# Concentration: 200 nM
# Setting: whole 134-nt RNA, ends assumed
# Together with: 150 mM LiCl
# Baseline: input library
# Reading: higher = stronger binding
# Library: 7-deaza-guanosine replaces G
# Shared flanks, not repeated: GGGAGUUCUACAGUCCGACGAUC … UGGAAUUCUCGGGUGUCAAGG
Sequence,log2 enrichment
CUGUGCUACACAUCGUAUGUACCGAAUCGGCCCCCCCGGCCCCCCCGGGGCCCCCCCGGGGAAAGUAUUAUGUUACGCCGUUCGGAUCUG,0.141
ACCAUGCAGGUGGGCAUCUUUGGGAAGUGGGGCAAGGGGGGGAGAGGGAGGGGGGUAACACUUUGGGAACAGGUGGUCCCAGGUCGUUUC,0.251
CAAGUCCUGUGCUACACAUCGUAUGUACCGAAUCGGGAAAGGGAAAGGGAAAGGGGAAAGUAUUAUGUUACGCCGUUCGGAUCUGCACUU,-0.527
GUCCUGUGCUACACAUCGUAUGUACCGAAUCAAACCCAAACCCCCAAACCCCCCCAAAAAAGUAUUAUGUUACGCCGUUCGGAUCUGCAC,-0.0398
CAAGUCCUGUGCUACACAUCGUAUGUACCGAAUCGGUUUUUGGAGGUUUUUUUGGAAAGUAUUAUGUUACGCCGUUCGGAUCUGCACUUC,-0.332
GAUGAGACAGAUGCUUCAUCAGCAGUGAAAGUGAAAAGAGCAGUCCAGAAAACAUCCGAUUUAAUAGUGUUGGGUCUCCCAUGGAAAACA,-1.25
AGUCCUGUGCUACACAUCGUAUGUACCGAAUCGGGUGGGAAAAAGGGAAAAAAAGGGAAAGUAUUAUGUUACGCCGUUCGGAUCUGCACU,-0.128
GCAGGAAGUAAAAACAAAUGGAAAUGCUGCGGAUAGUGGCAGGGGUGGGGGUUGCUAAGGAAAGGGUGGGAUGGGAGUGGGUAAAGAGUU,0.65

# Set 7
# Target: Sal-like protein 4, full length isoform A (SALL4, Homo sapiens, UniProt Q9UJQ4, residues 1-1053)
# Chain of UniProt Q9UJQ4 (whole entry, looked up): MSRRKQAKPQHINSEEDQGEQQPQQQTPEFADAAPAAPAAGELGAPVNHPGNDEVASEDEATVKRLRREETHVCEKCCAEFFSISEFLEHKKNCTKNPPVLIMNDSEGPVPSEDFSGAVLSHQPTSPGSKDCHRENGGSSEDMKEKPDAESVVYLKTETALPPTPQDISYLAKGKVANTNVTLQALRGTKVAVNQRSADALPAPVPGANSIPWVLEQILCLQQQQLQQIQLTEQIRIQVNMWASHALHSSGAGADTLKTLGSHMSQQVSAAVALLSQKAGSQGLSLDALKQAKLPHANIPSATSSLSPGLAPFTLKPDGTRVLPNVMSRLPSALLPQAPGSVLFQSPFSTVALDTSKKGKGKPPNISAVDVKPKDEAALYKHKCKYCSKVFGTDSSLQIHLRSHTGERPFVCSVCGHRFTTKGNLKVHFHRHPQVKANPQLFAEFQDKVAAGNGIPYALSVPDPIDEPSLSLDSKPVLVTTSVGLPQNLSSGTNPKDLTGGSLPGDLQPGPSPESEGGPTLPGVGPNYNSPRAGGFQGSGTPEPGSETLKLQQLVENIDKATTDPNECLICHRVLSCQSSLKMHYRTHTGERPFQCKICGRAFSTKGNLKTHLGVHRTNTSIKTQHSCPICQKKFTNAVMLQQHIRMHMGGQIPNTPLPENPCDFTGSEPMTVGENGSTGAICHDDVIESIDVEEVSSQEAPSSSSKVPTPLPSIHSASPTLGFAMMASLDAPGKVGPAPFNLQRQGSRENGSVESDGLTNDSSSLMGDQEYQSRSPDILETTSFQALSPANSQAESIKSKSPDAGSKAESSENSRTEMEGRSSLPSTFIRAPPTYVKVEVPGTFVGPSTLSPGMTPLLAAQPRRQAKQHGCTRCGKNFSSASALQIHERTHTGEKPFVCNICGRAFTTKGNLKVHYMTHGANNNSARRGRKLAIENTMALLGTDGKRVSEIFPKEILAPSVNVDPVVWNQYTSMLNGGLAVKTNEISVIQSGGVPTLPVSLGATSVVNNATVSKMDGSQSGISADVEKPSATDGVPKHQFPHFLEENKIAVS
# Method: universal PBM
# Molecule type: double-stranded DNA, one strand shown
# Matrix: in vitro
# Concentration: 600 nM
# Setting: 8-mer, flanks averaged, mean of replicates
# Reading: higher = stronger binding
Sequence,E-score
ACTGCCCC,-0.247
CATATTTC,0.373
CCTGCACC,-0.337
CTATTAAG,0.151
CCAATGTA,0.0117
CATAAACG,0.284
CAAGCACA,-0.116
ACCTTCAA,0.16
ACCTCCCG,-0.26
GGCTCAAC,-0.202
CCTCCATA,0.0709
ACCACGAG,-0.0896
ACACCTGG,-0.233
CCAGTAGA,-0.0391
GTATCGTA,0.205
CATGCGCC,-0.344
AGGGTGAA,-0.0373
ACAGCAAG,0.107
GCGAGCGC,-0.293

# A few entries again (set 1):
Sequence,E-score
GTAAAGCA,-0.0394
TGACGTAA,-0.0597
AGCTCCGG,-0.0813
GATCTCCC,0.00822
CCGGTGTC,0.234
AACTAGTA,-0.11
GGCCGGTA,0.276
CCTCGGCG,0.402
CATAGTGA,-0.197
GAGGGGCA,-0.0426
CTCATGGC,-0.00834
